Experimental data from different studies.
A part holds a random share of what one study measured. Positions count from the first letter of the parent shown.

Study 1 — method: RNA Bind-n-Seq; form: RNA; matrix: in vitro; concentration: 365 nM; reference: no-protein control; direction: higher = stronger binding
Target: RNA binding protein fox-1 homolog 2, RRM domain, GST-SBP tag (RBFOX2, Homo sapiens, UniProt O43251-10, residues 100-194)
Setting: natural RNA segment, single round, ends assumed
Shared flanks, not repeated: GGGAGUUCUACAGUCCGACGAUC … UGGAAUUCUCGGGUGCCAA
Target sequence (chain): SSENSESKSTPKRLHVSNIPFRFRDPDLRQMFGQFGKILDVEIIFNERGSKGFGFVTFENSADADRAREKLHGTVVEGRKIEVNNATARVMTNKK
`CUGUUUUUAAUUAACAAUUGGAUUUUAUUGGAAGAAGAAAAAGCAGUUUCAUUAUUUUGGAUGAUGAUGCAGAGACUCAUGUUAAUGAACUCGAAAAUGGUGUUGCUUCA` — result for “RBNS enrichment (R)”: 0.474.
Under “RBNS enrichment (R)”, `AACUCUUGAGACUGCAUUGUCUUAUAUUCUGUAAGUUCAGAAAUGUAAGUGAAAAAGCCGUGACCAACCGUAGUAAAGUAGAUGACAGCUGUUGUAUAUCAGACUUAAUU` is recorded as 0.337.
For `CGCAGUUCUUCCUAUCAGCUUCAGUGACCCAGGGUCUGAACUGCCUCCAUCCUAGGGCAACCUGGGGCAGACAGGCCUGGUGGGGGGUGGGGAAACCUCCUUCCACCUGA`, “RBNS enrichment (R)” read 0.216.
`GUUUCUUCUGGAGAAUUGGAACAUGUGUGGCCCCAAGCUCAACAGAAACCAGUUGUUCCCAAUCUGCCGUUACCAUCAACGCACUGUUGCAUAUGCCAGCCACUGCGCUU` — result for “RBNS enrichment (R)”: 0.624.
`UGAUGCCAAAGAGCUCAACGGGGCCUCUCAUGGUGAGCGUGGAUAGAUACGUGAUGUCUGGUCAUGUAGUGAGGGCCUUGGGGGCUUGCCUUUGAAUGCUAUAGCAUAUU` — result for “RBNS enrichment (R)”: 1.72.
For `CAGAUACAAUAAAGGCUAUGAGUAUAAAUACAUAACUUCCUAACCAGGUGUAGGGCAUGUUCAUGAAUAUCAAAUCUUUUGAUGCUGGACCCAAGAGAGGAAAAGUUGUA`, “RBNS enrichment (R)” read 0.765.
`UUUUUCUUCAAGAGACGCAAUUGCAAUAGUAUUUUUUAGAUUUUAUCCAAGAAGUUUUUUGGGCGAAAAUCUUGGAUCAUUUUUAUGUAGCAUGAUUUUCCUUGGGAUGC`: “RBNS enrichment (R)” 1.83.
For `GUACUCACAGAUCCACUGCCCGCCUCUCCUCCCCUCAUGUUCCAGGACUCACCACCGUGGUCAGACCAUGCCCAGUGUGCCCAGGGCAAAGUUGGAUGGGCAGGUGCAGA`, “RBNS enrichment (R)” read 0.257.
For `AUUUCCUCUCCAGUACCCAUUUCCAAAGAGAAAGAGUGAAGUACUUUGAAGUCUGUACUUGAAAUCUGUCUGGAAGUGUUUCCUUGUUAGUUUUGGGUUUCUCCCCUGUC`, “RBNS enrichment (R)” read 0.434.
`UUCACAUUUGUAGAUUAAGCUGGAAUUAUAAUGAGAGCAAUAAGAACAAAUUUAUUUUGCUUACCACAGUGUUAUAGCUGGUUCUAGAAAUUUGAAGUCUUUAUAACUUA` — result for “RBNS enrichment (R)”: 0.309.
`UUGUCAUUGUUCCAAAUUUCCAGAAUAGAAUAUAGGACCAGUUUAGAUCCUGUAGUAAACAUGUCCCAUCUAUGACUGCCUUGAUUAUAGAGGCAAGGGGUUACUGUGUG`: “RBNS enrichment (R)” 0.477.
Under “RBNS enrichment (R)”, `AAAAAGCUUUUAGUUGCUAAUUUGUUUCCGCUGAGCCAAGUGUUUGAGAAACCUGGACUAGAGCUUAGCACUCCCACUUGCAGCCUGGCAGGACCUGUGGAGCCAUUAAC` is recorded as 0.39.

Study 2 — method: universal PBM; form: double-stranded DNA, one strand shown; matrix: in vitro; concentration: 600 nM; direction: higher = stronger binding
Target: Sal-like protein 4, full length isoform A (SALL4, Homo sapiens, UniProt Q9UJQ4, residues 1-1053)
Chain of UniProt Q9UJQ4 (whole entry, looked up): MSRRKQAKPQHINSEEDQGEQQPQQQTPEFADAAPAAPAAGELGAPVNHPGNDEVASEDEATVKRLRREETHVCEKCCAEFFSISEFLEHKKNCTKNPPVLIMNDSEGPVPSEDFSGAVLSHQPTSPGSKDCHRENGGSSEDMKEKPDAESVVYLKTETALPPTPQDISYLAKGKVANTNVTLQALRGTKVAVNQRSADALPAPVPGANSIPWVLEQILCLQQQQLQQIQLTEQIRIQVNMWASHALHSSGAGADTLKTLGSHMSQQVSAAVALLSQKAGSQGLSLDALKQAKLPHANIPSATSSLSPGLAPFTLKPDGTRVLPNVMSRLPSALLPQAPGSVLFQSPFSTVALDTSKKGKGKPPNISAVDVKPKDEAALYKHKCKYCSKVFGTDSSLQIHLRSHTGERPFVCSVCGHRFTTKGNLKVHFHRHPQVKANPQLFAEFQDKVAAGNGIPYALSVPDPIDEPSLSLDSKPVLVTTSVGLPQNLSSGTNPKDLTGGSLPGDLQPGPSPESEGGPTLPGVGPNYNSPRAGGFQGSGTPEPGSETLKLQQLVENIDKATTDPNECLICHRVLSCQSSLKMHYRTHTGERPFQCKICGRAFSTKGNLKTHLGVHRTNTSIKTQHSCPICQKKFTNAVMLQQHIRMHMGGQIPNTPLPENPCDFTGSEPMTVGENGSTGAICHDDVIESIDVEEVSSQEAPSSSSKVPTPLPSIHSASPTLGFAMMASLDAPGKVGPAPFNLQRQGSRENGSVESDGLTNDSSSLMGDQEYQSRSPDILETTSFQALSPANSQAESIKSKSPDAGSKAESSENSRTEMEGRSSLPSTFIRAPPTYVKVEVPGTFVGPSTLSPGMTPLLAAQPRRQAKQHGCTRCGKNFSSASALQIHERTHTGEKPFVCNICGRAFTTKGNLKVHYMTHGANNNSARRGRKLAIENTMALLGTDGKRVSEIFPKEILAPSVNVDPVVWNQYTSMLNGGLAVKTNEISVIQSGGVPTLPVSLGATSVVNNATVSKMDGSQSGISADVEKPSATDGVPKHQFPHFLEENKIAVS
Setting: 8-mer, flanks averaged, mean of replicates
The E-score of `ACCGTCAT` is reported as 0.0207.
`AAGCTTTC` gave an E-score of 0.0695.
The E-score of `ACGACCCT` is reported as -0.25.
For `GGTAGGCA`, the E-score was -0.116.
`GTTGTTGA` gave an E-score of 0.123.
The E-score of `AGCAGCCC` is reported as -0.32.
For `AGACATCA`, the E-score was 0.0483.
`ATCCAGTG` gave an E-score of -0.00298.
With `AGGACCAC` the E-score was -0.232.
`CATTGCCC` gave an E-score of -0.158.
With `CCGACAAG` the E-score was -0.0808.
With `CACCTAGG` the E-score was -0.187.
The E-score of `AACTGCAT` is reported as 0.165.
`AGTGTTCG` gave an E-score of -0.0216.
For `AGCGGTAC`, the E-score was -0.159.
`GCCCGTGA` gave an E-score of -0.259.
With `AAATGAAC` the E-score was 0.244.
For `AACTCCAC`, the E-score was 0.0164.
The E-score of `AGTATACT` is reported as 0.184.
`ACCGGAGG` has an E-score of -0.278.

Study 3 — method: RNA Bind-n-Seq; form: RNA; matrix: in vitro; concentration: 20 nM; setting: 6-mer, flanks averaged, single round; together with: 150 mM LiCl; reference: input library; direction: higher = stronger binding
Target: TAR DNA-binding protein 43, full length, His tag (TARDBP, Homo sapiens, UniProt Q13148, residues 1-414)
`CGAUCU`: “6-mer enrichment (R)” 0.813.
For `ACGACG`, “6-mer enrichment (R)” read 0.808.
Under “6-mer enrichment (R)”, `UCGUGC` is recorded as 0.93.
For `GAGGGC`, “6-mer enrichment (R)” read 1.11.
`GAGCUG` — result for “6-mer enrichment (R)”: 0.992.
For `UGCCUA`, “6-mer enrichment (R)” read 0.937.
For `CACGGU`, “6-mer enrichment (R)” read 0.891.
For `GUGCAC`, “6-mer enrichment (R)” read 0.995.
`AAGGCU`: “6-mer enrichment (R)” 0.849.
`UAUGCG`: “6-mer enrichment (R)” 1.1.
For `GUUCCC`, “6-mer enrichment (R)” read 1.03.
`UUAUGC`: “6-mer enrichment (R)” 1.03.
`UCCGUC` — result for “6-mer enrichment (R)”: 0.887.
`UUAAGC` — result for “6-mer enrichment (R)”: 0.919.
`GCCCUU` — result for “6-mer enrichment (R)”: 1.15.
For `GGCCGC`, “6-mer enrichment (R)” read 1.03.
`UGCUUA`: “6-mer enrichment (R)” 0.973.
For `ACGAAU`, “6-mer enrichment (R)” read 0.866.
`CCCUCC` — result for “6-mer enrichment (R)”: 1.2.
Under “6-mer enrichment (R)”, `UAUAUA` is recorded as 1.01.
`UAACGU`: “6-mer enrichment (R)” 0.887.
For `AAAUGG`, “6-mer enrichment (R)” read 1.
`AACCGA` — result for “6-mer enrichment (R)”: 0.782.
Under “6-mer enrichment (R)”, `AGUGGA` is recorded as 1.11.

Study 4 — method: RNA Bind-n-Seq; form: RNA; matrix: in vitro; concentration: 200 nM; setting: whole 134-nt RNA, ends assumed; together with: 150 mM KCl; reference: input library; direction: higher = stronger binding
Target: Fragile X messenger ribonucleoprotein 1, C-terminal low-complexity region (Fmr1, Mus musculus, UniProt P35922)
Shared flanks, not repeated: GGGAGUUCUACAGUCCGACGAUC … UGGAAUUCUCGGGUGUCAAGG
The log2 enrichment of `CCUGUGCUACACAUCGUAUGUACCGAAUCGGGGAAAAAAGGGGAAAAAAGGGAAAAAAGGGAAAGUAUUAUGUUACGCCGUUCGGAUCUG` is reported as -0.531.
The log2 enrichment of `CCUGUGCUACACAUCGUAUGUACCGAAUCGGGGAAAAAAAGGGGAAAAAGGGGUUUGGGGAAAGUAUUAUGUUACGCCGUUCGGAUCUGC` is reported as 0.2.
`UGGGAGGUGGAUUUUGUUUAUUUUUUUAGCUCAAUUCCAGGGGUGGGAAUUUUUUUUUAAUAUGUGUCAUGAAUAAAGUUGUUUUUGAAA` has a log2 enrichment of 0.593.
The log2 enrichment of `UGGCCCUGGUGGCAUGCGGGGAGGAAGAGGUGGCCUCAUGGAUCGUGGUGGUCCCGGUGGAAUGUUGAGAGGUGGCCGUGGUGGAGACAG` is reported as 0.0483.
For `AGUCCUGUGCUACACAUCGUAUGUACCGAAUCGGGGAAAAGGGAAAAGGGAAAAGGGAAAGUAUUAUGUUACGCCGUUCGGAUCUGCACU`, the log2 enrichment was 0.197.
`UGUGCUACACAUCGUAUGUACCGAAUCGGGGUUUUUUUGGGGUUUUUUUGGGGUUUUUUUGGGAAAGUAUUAUGUUACGCCGUUCGGAUC` has a log2 enrichment of 0.199.
`AAGUCCUGUGCUACACAUCGUAUGUACCGAAUCGGGUUUGGGUUUUUGGGUUUGGGAAAGUAUUAUGUUACGCCGUUCGGAUCUGCACUU` gave a log2 enrichment of 0.936.
`GUCCUGUGCUACACAUCGUAUGUACCGAAUCGGGGUUUUUGGUUUUUGGGUUUUUGGGAAAGUAUUAUGUUACGCCGUUCGGAUCUGCAC` has a log2 enrichment of -0.318.
`CUCAAGUCCUGUGCUACACAUCGUAUGUACCGAAUCGGGGAAGGGAAGGAAGGAAAGUAUUAUGUUACGCCGUUCGGAUCUGCACUUCCA` has a log2 enrichment of 0.059.
`AGUCCUGUGCUACACAUCGUAUGUACCGAAUCGGGAAAGGGAAAGGGAAAAAAAGGGAAAGUAUUAUGUUACGCCGUUCGGAUCUGCACU` gave a log2 enrichment of -0.154.
With `AAUGCCCACAAGGUCCCUCCCCCAUGGCUGAUUGCCAUGCAGCGAUAUGGACCACCCCCAUCGUAUCCCAACCUGAAAAUCCCUGGGCUG` the log2 enrichment was 0.0146.
For `CAAGUCCUGUGCUACACAUCGUAUGUACCGAAUCGGGCCCCGGGCCCCGGCCCCGGAAAGUAUUAUGUUACGCCGUUCGGAUCUGCACUU`, the log2 enrichment was -0.507.
For `GUCCUGUGCUACACAUCGUAUGUACCGAAUCGGGGAAAAAAAGGGGAGGGGAAAGGGGAAAGUAUUAUGUUACGCCGUUCGGAUCUGCAC`, the log2 enrichment was 0.28.
The log2 enrichment of `AAGUCCUGUGCUACACAUCGUAUGUACCGAAUCGGGCCCCCGGCCCCCGGCCCCCGGAAAGUAUUAUGUUACGCCGUUCGGAUCUGCACU` is reported as -0.218.

Study 5 — method: DHFR PCA, deep sequencing; matrix: yeast; together with: (+)-ABA 4.8 µM; reference: wild-type fitted maximum; direction: higher = stronger binding
Target: ABI1, truncated, D143A, DHFR fusion (Arabidopsis thaliana)
Setting: methotrexate growth selection, single substitutions
Parent: PYL1, truncated, DHFR fusion (Arabidopsis thaliana); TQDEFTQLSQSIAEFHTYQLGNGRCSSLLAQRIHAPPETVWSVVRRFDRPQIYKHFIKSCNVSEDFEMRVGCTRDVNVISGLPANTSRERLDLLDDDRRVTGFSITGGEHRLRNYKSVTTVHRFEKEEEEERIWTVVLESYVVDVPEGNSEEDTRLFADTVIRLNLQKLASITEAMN
`G107E` — result for “relative binding score”: 30.4%.
`G21Y`: “relative binding score” 52.1%.
`S26V`: “relative binding score” 30.9%.
For `Q51G`, “relative binding score” read 32%.
Under “relative binding score”, `H34S` is recorded as 69%.
`T160P` — result for “relative binding score”: -4.9%.
For `R32G`, “relative binding score” read 23.7%.
`R90K` — result for “relative binding score”: 58.5%.
For `D48H`, “relative binding score” read 0.152%.
Under “relative binding score”, `T101R` is recorded as -6.15%.
Under “relative binding score”, `L20G` is recorded as 72.6%.
`Q10N` — result for “relative binding score”: 69.7%.
Under “relative binding score”, `S59K` is recorded as 56.3%.
For `L166H`, “relative binding score” read 32.8%.
`R163W`: “relative binding score” 0.466%.
`P83K`: “relative binding score” -5.25%.
`T120I`: “relative binding score” -3.79%.
For `Y141I`, “relative binding score” read 10.9%.
For `S63W`, “relative binding score” read 12.3%.
`N149P` — result for “relative binding score”: -0.222%.
`R123V`: “relative binding score” 27.4%.
